Measurements from different studies.
± gives the spread as reported.
serotonin receptor-like protein: serotonin receptor-like protein (Schistosoma mansoni, UniProt A0A173FEI8)
sdiA: Regulatory protein SdiA (sdiA, Escherichia coli, UniProt P07026)
Chain of UniProt P07026 (whole entry, looked up): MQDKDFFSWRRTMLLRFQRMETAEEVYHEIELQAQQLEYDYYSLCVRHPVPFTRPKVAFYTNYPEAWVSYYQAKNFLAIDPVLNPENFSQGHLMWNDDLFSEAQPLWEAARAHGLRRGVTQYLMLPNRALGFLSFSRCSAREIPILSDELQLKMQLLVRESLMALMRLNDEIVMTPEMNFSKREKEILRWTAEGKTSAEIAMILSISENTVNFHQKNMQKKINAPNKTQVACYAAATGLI
Chain of UniProt Q9UBE8 (whole entry, looked up): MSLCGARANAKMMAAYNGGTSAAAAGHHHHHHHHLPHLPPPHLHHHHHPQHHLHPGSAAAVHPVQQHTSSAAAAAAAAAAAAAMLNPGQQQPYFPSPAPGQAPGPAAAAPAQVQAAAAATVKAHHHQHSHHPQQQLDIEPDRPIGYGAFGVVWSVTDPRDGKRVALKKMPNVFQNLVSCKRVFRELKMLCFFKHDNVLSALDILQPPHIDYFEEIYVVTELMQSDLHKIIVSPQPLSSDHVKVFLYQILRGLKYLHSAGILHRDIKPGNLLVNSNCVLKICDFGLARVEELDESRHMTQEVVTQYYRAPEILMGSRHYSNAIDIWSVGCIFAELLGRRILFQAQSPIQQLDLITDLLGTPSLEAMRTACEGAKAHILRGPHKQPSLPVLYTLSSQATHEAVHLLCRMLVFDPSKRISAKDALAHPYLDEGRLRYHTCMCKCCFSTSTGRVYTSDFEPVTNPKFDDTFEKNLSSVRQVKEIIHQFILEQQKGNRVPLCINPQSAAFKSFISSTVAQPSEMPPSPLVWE
Chain of UniProt Q96RJ0 (whole entry, looked up): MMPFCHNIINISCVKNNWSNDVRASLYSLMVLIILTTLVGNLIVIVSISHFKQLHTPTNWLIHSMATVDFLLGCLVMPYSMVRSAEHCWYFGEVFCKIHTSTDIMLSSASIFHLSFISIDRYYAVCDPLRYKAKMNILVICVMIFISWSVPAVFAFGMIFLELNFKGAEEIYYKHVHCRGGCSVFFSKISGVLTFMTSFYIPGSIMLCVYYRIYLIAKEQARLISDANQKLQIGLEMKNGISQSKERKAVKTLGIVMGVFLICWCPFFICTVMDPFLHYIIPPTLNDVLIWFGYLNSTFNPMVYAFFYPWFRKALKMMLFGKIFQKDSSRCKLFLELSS
Chain of UniProt Q60893 (whole entry, looked up): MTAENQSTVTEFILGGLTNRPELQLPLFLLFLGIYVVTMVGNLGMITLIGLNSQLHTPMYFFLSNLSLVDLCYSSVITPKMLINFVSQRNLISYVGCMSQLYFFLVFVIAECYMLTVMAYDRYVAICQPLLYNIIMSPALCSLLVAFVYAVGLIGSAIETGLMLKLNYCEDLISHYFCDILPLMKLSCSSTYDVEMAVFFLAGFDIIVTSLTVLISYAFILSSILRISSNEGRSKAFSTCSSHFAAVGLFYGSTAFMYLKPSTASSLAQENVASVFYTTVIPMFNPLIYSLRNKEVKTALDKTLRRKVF
Chain of UniProt Q0P543 (whole entry, looked up): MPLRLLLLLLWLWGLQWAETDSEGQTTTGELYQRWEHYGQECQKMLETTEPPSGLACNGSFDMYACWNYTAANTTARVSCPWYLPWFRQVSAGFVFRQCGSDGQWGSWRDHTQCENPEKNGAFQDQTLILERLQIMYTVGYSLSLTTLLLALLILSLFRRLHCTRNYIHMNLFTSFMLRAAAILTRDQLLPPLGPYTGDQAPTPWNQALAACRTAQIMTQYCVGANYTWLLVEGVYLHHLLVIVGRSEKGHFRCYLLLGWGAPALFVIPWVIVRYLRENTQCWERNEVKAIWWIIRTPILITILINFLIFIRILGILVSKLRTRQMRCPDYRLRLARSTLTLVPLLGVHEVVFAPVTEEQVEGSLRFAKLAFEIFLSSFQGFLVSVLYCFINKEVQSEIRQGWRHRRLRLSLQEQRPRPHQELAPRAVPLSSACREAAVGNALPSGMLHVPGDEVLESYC

`Cc1ccc(C(C)Nc2nc(N3CCNCC3)nc3ccccc23)cc1` (stereo not drawn) has a cytotoxicity efficacy of 0% (Vero-E6; CellTiter-Glo ATP; concentration not given, 72 h, retest 8-point duplicates; baseline: DMSO 0%, hyamine -100%, more negative, more toxic).
`NCCc1c[nH]c2ccc(C(N)=O)cc12` gave an Emax of 15 ± 1% (serotonin receptor-like protein; cAMP level, agonist, GloSensor luminescence; baseline: 5-HT maximal response).
`NCCc1ccc(O)cc1` has an Emax of 104 ± 0.2% (Trace amine-associated receptor 1 (TAAR1, Homo sapiens, UniProt Q96RJ0)).
The Emax of `NCCc1c[nH]c2ccccc12` is reported as 36 ± 6% (serotonin receptor-like protein; cAMP level, agonist, GloSensor luminescence; baseline: 5-HT maximal response).
With `COc1ccc(C=O)cc1` the Emax was 100 ± 5% (Or8a1 (Mus musculus, UniProt Q60893); odorant-evoked current, agonist; isolated olfactory neurons; baseline: acetophenone saturated response).
With `O=C(CCc1ccc([N+](=O)[O-])cc1)N[C@H]1CCOC1=O` the Emax was 102% (sdiA).
The Emax of `Cc1cc(SCc2sc(-c3ccc(C(F)(F)F)c(F)c3)nc2C)ccc1OCC(=O)O` is reported as 100% (Peroxisome proliferator-activated receptor delta (Rattus norvegicus, UniProt Q62879); reporter gene, agonist, luciferase reporter; rat receptor; baseline: internal maximal activation control).
The Emax of `CC[C@H](C)[C@H](NC(=O)[C@H](CO)NC(=O)[C@H](Cc1ccc(O)cc1)NC(=O)[C@H](CC(=O)O)NC(=O)[C@H](CO)NC(=O)[C@@H](NC(=O)[C@H](Cc1ccccc1)NC(=O)[C@@H](NC(=O)CNC(=O)[C@H](CCC(=O)O)NC(=O)[C@H](C)NC(=O)[C@@H](N)Cc1ccc(O)cc1)[C@@H](C)O)[C@@H](C)CC)C(=O)N[C@@H](C)C(=O)N[C@@H](CCSC)C(=O)N[C@@H](CC(=O)O)C(=O)N[C@@H](CCCCN)C(=O)N[C@H](C(=O)N[C@@H](Cc1c[nH]cn1)C(=O)N[C@@H](CCC(N)=O)C(=O)N[C@@H](CCC(N)=O)C(=O)N[C@@H](CC(=O)O)C(=O)N[C@@H](Cc1ccccc1)C(=O)N[C@H](C(=O)N[C@@H](CC(N)=O)C(=O)N[C@@H](Cc1c[nH]c2ccccc12)C(=O)N[C@@H](CC(C)C)C(=O)N[C@@H](CC(C)C)C(=O)N[C@@H](C)C(=O)N[C@@H](CCC(N)=O)C(=O)N[C@@H](CCCCN)C(=O)NCC(=O)N[C@@H](CCCCN)C(=O)N[C@@H](CCCCN)C(=O)N[C@@H](CC(N)=O)C(=O)N[C@@H](CC(=O)O)C(=O)N[C@@H](Cc1c[nH]c2ccccc12)C(=O)N[C@@H](CCCCN)C(=O)N[C@@H](Cc1c[nH]cn1)C(=O)N[C@@H](CC(N)=O)C(=O)N[C@H](C(=O)N[C@H](C(=O)N[C@@H](CCC(N)=O)C(=O)O)[C@@H](C)O)[C@@H](C)CC)C(C)C)[C@@H](C)CC` is reported as 84% (Gastric inhibitory polypeptide receptor (Mus musculus, UniProt Q0P543); cAMP accumulation, agonist; mouse receptor-expressing cells).
`CCCCCCCCCC(=O)NC1CCCC1` has an Emax of 102% (sdiA).
With `C[C@H]1CN(c2n[nH]c3nc(N[C@H]4CC[C@H](NS(=O)(=O)CCC(F)(F)F)CC4)ncc23)CCO1` the Hill slope was 0.81 (Serine/threonine-protein kinase NLK (NLK, Homo sapiens, UniProt Q9UBE8); competitor, Kinobeads competition; HEK293, K562, placenta extract).
`CCCCCCCCCCCCCCCC(=O)N[C@H]1CCOC1=O` has an Emax of 91.3% (sdiA).
For `CCCCN(C)CCNC(=O)c1cc(-c2ccc(Cl)s2)nc2ccccc12`, the maximum response was -55.3% (Vero-E6; CellTiter-Glo ATP; 72 h, retest 8-point duplicates; baseline: DMSO 0%, hyamine -100%, more negative, more toxic).
